Measured values of several laboratories.
Compare with care: the assays were run in different laboratories. “And” joins repeats or separate records; there may be more than shown. Numbers after ± are the reported error.

The CC50 of `O=C(C[Se]C(=O)C12CC3CC(CC(C3)C1)C2)Nc1cccc(C(F)(F)F)c1` is reported as 15.3 µM (NCI60 CNS subpanel; NCI60 five-dose screen).
With `CC1CCC2C(C)C(OC(=O)CCC(=O)N3CCC(Nc4ccc(S(=O)(=O)NC(=O)c5ccc(N6CCN(CC7=C(c8ccc(Cl)cc8)CC(C)(C)CC7)CC6)cc5Oc5cnc6[nH]ccc6c5)cc4[N+](=O)[O-])CC3)OC3OC4(C)CCC1C32OO4` (centres unmarked) the necrotic cells was 0.1% (KCL-22; annexin V/PI flow cytometry, measured: annexin V-/PI+; 3.2 µM, 24 h).
`CC(C)C[C@H](NC(=O)[C@H](CC(=O)O)NC(=O)CNC(=O)[C@@H](N)CCCNC(=N)N)C(=O)N[C@@H](C)C(=O)N[C@H](C(=O)N[C@@H](CC(C)C)C(=O)N[C@@H](CCCNC(=N)N)C(=O)N[C@@H](CCC(N)=O)C(=O)N[C@@H](CC(C)C)C(=O)N[C@@H](C)C(=O)N[C@@H](CCC(N)=O)C(=O)N[C@@H](CCC(=O)O)C(=O)N[C@@H](CC(=O)O)C(=O)NCC(=O)N[C@H](C(=O)N[C@H](C(=O)NCC(=O)N[C@H](C(=O)N[C@@H](CCCNC(=N)N)C(=O)NCCOCCOCCOCCOCCOCCOCCOCCOCCOCCOCCOCCOCCC(=O)N[C@@H](CS)C(N)=O)C(C)C)C(C)C)C(C)C)[C@@H](C)O` has a selectivity ratio of 120 ± 17 (H1975 lung adenocarcinoma; cell binding, phage binding, measured: output/input phage; 10 min, 37 °C; relative to: control phage).
With `O=C(C[Se]C(=O)c1ccco1)Nc1cccc(C(F)(F)F)c1` the CC50 was 24.3 µM (NCI60 CNS subpanel; NCI60 five-dose screen).
Under “CD71 fluorescence intensity”, `O=C(O)c1ccc(-c2nc(-c3ccccc3Cl)c3sccn23)cc1` is recorded as 0.86 and 0.78 and 0.87 (K562; erythroid differentiation, flow cytometry; 0.1 mM, 48 h, unit not given; relative to: untreated).
`CC(C)C[C@H](NC(=O)[C@H](CCC(=O)O)NC(=O)[C@@H](N)Cc1ccccc1)C(=O)N[C@@H](CCC(=O)O)C(=O)N[C@@H](CCCNC(=N)N)C(=O)N[C@@H](CCCNC(=N)N)C(=O)N[C@@H](Cc1ccccc1)C(=O)N[C@@H](CCCCN)C(=O)N[C@@H](CCC(N)=O)C(=O)N[C@@H](CCC(N)=O)C(=O)O` has a viability of 99.5% and 100% and 99.4% (HCT-116; CCK-8; 0.625 µM; relative to: vehicle).
With `Cc1c(Cl)cccc1Nc1ccccc1C(=O)[Se]CC(=O)Nc1cccc(C(F)(F)F)c1` the CC50 was 7.25 µM (NCI60 CNS subpanel; NCI60 five-dose screen).
`NC(=O)N/N=C/c1ccc(OCc2ccccc2)cc1` — result for “catalase activity (OD450)”: 0.108 a.u. (IMR-32; 50 µg/mL, 24 h; higher = more activity).
`CC(C)[C@H](NC(=O)[C@H](CCCNC(=N)N)NC(=O)[C@@H]1CCCN1C(=O)[C@@H](NC(=O)[C@H](C)NC(=O)[C@H](Cc1ccc(O)cc1)NC(=O)[C@H](CCC(N)=O)NC(=O)[C@H](CCCCN)NC(=O)[C@H](CCCNC(=N)N)NC(=O)[C@@H]1CCCN1C(=O)[C@H](CCC(=O)O)NC(=O)[C@@H](NC(=O)[C@H](C)N)[C@@H](C)O)[C@@H](C)O)C(=O)N[C@@H](Cc1ccccc1)C(=O)N[C@@H](Cc1c[nH]c2ccccc12)C(=O)N[C@H](C(=O)N[C@@H](CC(=O)O)C(=O)N[C@@H](C)C(=O)N1CCC[C@H]1C(=O)NCC(=O)NCCOCCOCCOCCOCCOCCOCCOCCOCCOCCOCCOCCOCCC(=O)N[C@@H](CS)C(N)=O)[C@@H](C)O` has a selectivity ratio of 3.7 ± 1.9 (MiaPaCa pancreatic cancer; cell binding, phage binding, measured: output/input phage; 10 min, 37 °C; relative to: control phage).
The internalized fraction of `CC[C@H](C)[C@H](NC(=O)[C@H](C)NC(=O)CNC(=O)[C@H](Cc1ccccc1)NC(=O)[C@H](CC(N)=O)NC(=O)[C@H](CC(N)=O)NC(=O)[C@H](CO)NC(=O)[C@H](CO)NC(=O)[C@H](Cc1c[nH]cn1)NC(=O)[C@@H](NC(=O)[C@H](CC(C)C)NC(=O)[C@H](Cc1ccccc1)NC(=O)[C@H](CC(N)=O)NC(=O)[C@H](C)NC(=O)[C@H](CC(C)C)NC(=O)[C@H](CCCNC(=N)N)NC(=O)[C@H](CCC(N)=O)NC(=O)[C@@H](NC(=O)[C@H](C)NC(=O)[C@@H]1CSSC[C@H](NC(=O)[C@@H](N)CCCCN)C(=O)N[C@@H](CC(N)=O)C(=O)N[C@@H]([C@@H](C)O)C(=O)N[C@@H](C)C(=O)N[C@@H]([C@@H](C)O)C(=O)N1)[C@@H](C)O)C(C)C)C(=O)N[C@@H](CC(C)C)C(=O)N[C@@H](CO)C(=O)N[C@@H](CO)C(=O)N[C@H](C(=O)N[C@@H](CC(N)=O)C(=O)N[C@H](C(=O)NCC(=O)N[C@@H](CO)C(=O)N[C@@H](CC(N)=O)C(=O)N[C@H](C(=O)N[C@@H](Cc1ccc(O)cc1)C(N)=O)[C@@H](C)O)C(C)C)[C@@H](C)O` is reported as < 10% (RIN-m5F; ELISA; cytosolic and organelle fractions; 24 h).
`COc1ccccc1-c1ccncc1C(=O)Nc1nnc(OCc2ccc(Cl)cc2)s1` has a colony survival of 97.3% (HCT-116 BRCA2 wild-type; 4 µM; relative to: untreated).
`O=C(Nc1cccs1)c1cccnc1`: “IC50 fold increase” 6 fold (HCT-116 NMNAT1 knockout; cell viability; relative to: NMNAT1 knockout over control sgRNA).
With `CCc1noc(CC)c1C(=O)O[C@H]1C(C)=C[C@]23C(=O)[C@@H](C=C(CO)[C@@H](O)[C@]12O)[C@H]1[C@@H](C[C@H]3C)C1(C)C` the EC50 was 64 µM (B16-F10; cytotoxicity, PrestoBlue; MEM with 10% FBS; 30 min).
The osteoclast formation of `CSCC[C@H](N)C(=O)N[C@@H](C)C(=O)N[C@@H](Cc1c[nH]c2ccccc12)C(=O)N[C@@H](Cc1c[nH]cn1)C(=O)N[C@@H](CC(=O)O)C(=O)N[C@@H](CC(=O)O)C(=O)N[C@@H](CCC(=O)O)C(=O)N[C@@H](CCC(=O)O)C(=O)N[C@@H](Cc1ccccc1)C(=O)N[C@@H](C)C(=O)N[C@@H](CCCNC(=N)N)C(=O)N[C@@H](CCCNC(=N)N)C(=O)N[C@@H](CCCNC(=N)N)C(=O)N[C@@H](CCCNC(=N)N)C(=O)NCCCCCC(=O)NCCCCC(NC(=O)CCCCCNC(=O)[C@H](CCCNC(=N)N)NC(=O)[C@H](CCCNC(=N)N)NC(=O)[C@H](CCCNC(=N)N)NC(=O)[C@H](CCCNC(=N)N)NC(=O)[C@H](C)NC(=O)[C@H](Cc1ccccc1)NC(=O)[C@H](CCC(=O)O)NC(=O)[C@H](CCC(=O)O)NC(=O)[C@H](CC(=O)O)NC(=O)[C@H](CC(=O)O)NC(=O)[C@H](Cc1c[nH]cn1)NC(=O)[C@H](Cc1c[nH]c2ccccc12)NC(=O)[C@H](C)NC(=O)[C@@H](N)CCSC)C(=O)NCCCCC(NC(=O)C(CCCCNC(=O)CCCCCNC(=O)[C@H](CCCNC(=N)N)NC(=O)[C@H](CCCNC(=N)N)NC(=O)[C@H](CCCNC(=N)N)NC(=O)[C@H](CCCNC(=N)N)NC(=O)[C@H](C)NC(=O)[C@H](Cc1ccccc1)NC(=O)[C@H](CCC(=O)O)NC(=O)[C@H](CCC(=O)O)NC(=O)[C@H](CC(=O)O)NC(=O)[C@H](CC(=O)O)NC(=O)[C@H](Cc1c[nH]cn1)NC(=O)[C@H](Cc1c[nH]c2ccccc12)NC(=O)[C@H](C)NC(=O)[C@@H](N)CCSC)NC(=O)CCCCCNC(=O)[C@H](CCCNC(=N)N)NC(=O)[C@H](CCCNC(=N)N)NC(=O)[C@H](CCCNC(=N)N)NC(=O)[C@H](CCCNC(=N)N)NC(=O)[C@H](C)NC(=O)[C@H](Cc1ccccc1)NC(=O)[C@H](CCC(=O)O)NC(=O)[C@H](CCC(=O)O)NC(=O)[C@H](CC(=O)O)NC(=O)[C@H](CC(=O)O)NC(=O)[C@H](Cc1c[nH]cn1)NC(=O)[C@H](Cc1c[nH]c2ccccc12)NC(=O)[C@H](C)NC(=O)[C@@H](N)CCSC)C(N)=O` (some centres unmarked) is reported as 27% (mouse C57BL/6 BMMs; 1.0 µM, 3 days, with: RANKL; relative to: untreated control).
For `CC(C)(C)C(=O)OCOP(=O)(OCOC(=O)C(C)(C)C)C1CCCN(O)C1=O` (centres unmarked), the TGI was 3.64 µM (COLO 205).
The CC50 of `O=C(C[Se]C(=O)c1cccnc1Nc1cccc(C(F)(F)F)c1)Nc1cccc(C(F)(F)F)c1` is reported as 9.12 µM (NCI60 CNS subpanel; NCI60 five-dose screen).
`CC(=O)NCSC[C@H](NC(=O)[C@@H]1CCCN1C(=O)[C@H](C)NC(=O)[C@@H](NC(=O)CNC(=O)[C@@H](NC(=O)[C@H](Cc1c[nH]c2ccccc12)NC(=O)[C@H](C)NC(=O)CNC(=O)[C@H](CO)NC(=O)[C@H](C)NC(=O)[C@@H]1CCCN1C(=O)[C@H](Cc1c[nH]c2ccccc12)NC(=O)[C@H](C)NC(=O)[C@H](C)NC(=O)[C@@H](N)Cc1ccc(O)cc1)[C@@H](C)O)[C@@H](C)O)C(=O)N[C@@H](CO)C(=O)N[C@@H](C)C(=O)NCC(=O)N[C@H](C(=O)NCCOCCOCCOCCOCCOCCOCCOCCOCCOCCOCCOCCOCCC(=O)N[C@@H](CS)C(N)=O)[C@@H](C)O` gave a selectivity ratio of 2.2 ± 1.4 (HCC827; phage binding; relative to: targeting over control phage).
For `Cc1cc(Oc2nc(N3CC[C@@H](c4ccncc4)C3)ncc2F)[nH]n1`, the IC50 was 37.2 µM (MIA PaCa-2; cell proliferation).
`CC(C)CC(O)(CC(C)C)c1cn(C(=O)N2CCCC2)nn1` has a protein level of 1.06 and 1.2 (mouse T-cells; SILAC proteomics, measured: Tpi1; 1 nM, 6 h, single peptides, unit not given; relative to: DMSO).
`O=C(C[Se]C(=O)c1cccs1)Nc1cccc(C(F)(F)F)c1` — result for “mean growth percent”: -86.9% (NCI60 CNS subpanel; cell growth; 10 µM, 48 h, one-dose).
For `CC(C)C[C@H](NC(=O)[C@H](CCC(=O)O)NC(=O)[C@@H](NC(=O)CN)[C@@H](C)O)C(=O)N1CCC[C@H]1C(=O)N[C@@H](CO)C(=O)N1CCC[C@H]1C(=O)N1CCC[C@H]1C(=O)N[C@@H](CO)C(=O)N[C@H](C(=O)N[C@@H](Cc1c[nH]c2ccccc12)C(=O)N[C@@H](Cc1ccccc1)C(=O)N[C@@H](CCC(=O)O)C(=O)N[C@@H](C)C(=O)N[C@@H](CCC(=O)O)C(=O)N[C@@H](Cc1ccccc1)C(=O)O)C(C)C`, the viability was 97.6 ± 2.02% (HepG2; MTT; 30 µg/mL, 24 h).
For `O=C(C[Se]C(=O)c1ccc2ccccc2n1)Nc1cccc(C(F)(F)F)c1`, the CC50 was 25.6 µM (NCI60 colon subpanel; NCI60 five-dose screen).
`CCCNC(=O)[C@H]1O[C@@H]1C(=O)N[C@H](C(=O)N1CCC[C@H]1C(=O)OCC1=C2C(C)=CC(C)=[N+]2[B-](C)(C)n2c(C)cc(C)c21)[C@@H](C)CC` gave a phototoxicity index of > 40 (MDA-MB-231; 4 h; relative to: dark EC50 over light EC50).
